Experimental data from different studies.
Several values in a cell are separate wells, animals, samples, runs or records. ± gives the spread as reported.
PYL8: PYL8 (Arabidopsis thaliana, UniProt Q9FGM1)
Sequence of UniProt Q9FGM1 (whole entry, looked up): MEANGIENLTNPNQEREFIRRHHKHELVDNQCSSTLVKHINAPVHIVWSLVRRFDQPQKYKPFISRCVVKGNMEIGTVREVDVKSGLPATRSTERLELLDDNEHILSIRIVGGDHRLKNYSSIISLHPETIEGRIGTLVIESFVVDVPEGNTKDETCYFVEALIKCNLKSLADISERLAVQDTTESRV
CGAS catalytic domain; with DNA: Cyclic GMP-AMP synthase, catalytic domain; with DNA (CGAS, Homo sapiens, UniProt Q8N884)
Sequence of UniProt Q8N884 (whole entry, looked up): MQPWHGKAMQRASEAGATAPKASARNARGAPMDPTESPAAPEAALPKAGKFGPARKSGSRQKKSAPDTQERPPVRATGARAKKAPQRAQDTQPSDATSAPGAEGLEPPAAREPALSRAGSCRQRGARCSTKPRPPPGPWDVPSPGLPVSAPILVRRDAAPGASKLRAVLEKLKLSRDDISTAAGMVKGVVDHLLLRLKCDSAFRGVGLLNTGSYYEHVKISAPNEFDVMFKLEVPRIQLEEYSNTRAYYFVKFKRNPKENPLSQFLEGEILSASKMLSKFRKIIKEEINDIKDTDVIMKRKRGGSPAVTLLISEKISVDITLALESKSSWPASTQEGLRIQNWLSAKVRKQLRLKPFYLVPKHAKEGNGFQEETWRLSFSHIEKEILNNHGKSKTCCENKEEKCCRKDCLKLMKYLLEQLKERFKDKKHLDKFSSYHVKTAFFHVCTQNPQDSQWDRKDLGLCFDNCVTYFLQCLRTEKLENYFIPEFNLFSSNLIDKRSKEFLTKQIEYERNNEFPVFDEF
OMA1: Metalloendopeptidase OMA1, mitochondrial (OMA1, Homo sapiens, UniProt Q96E52)
Sequence of UniProt Q96E52 (whole entry, looked up): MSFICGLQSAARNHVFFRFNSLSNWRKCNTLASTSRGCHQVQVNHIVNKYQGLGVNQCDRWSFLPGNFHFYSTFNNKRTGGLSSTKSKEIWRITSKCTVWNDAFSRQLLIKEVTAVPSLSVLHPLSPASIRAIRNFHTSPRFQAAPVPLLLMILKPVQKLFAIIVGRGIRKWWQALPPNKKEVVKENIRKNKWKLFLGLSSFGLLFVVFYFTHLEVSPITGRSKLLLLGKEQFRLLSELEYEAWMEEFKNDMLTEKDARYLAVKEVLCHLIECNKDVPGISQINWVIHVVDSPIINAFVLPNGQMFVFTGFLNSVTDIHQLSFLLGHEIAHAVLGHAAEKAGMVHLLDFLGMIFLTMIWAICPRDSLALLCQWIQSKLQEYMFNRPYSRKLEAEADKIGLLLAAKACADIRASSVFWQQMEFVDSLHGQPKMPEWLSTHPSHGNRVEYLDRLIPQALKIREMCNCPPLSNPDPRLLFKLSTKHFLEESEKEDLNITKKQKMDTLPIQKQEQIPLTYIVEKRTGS
Sequence of UniProt P43681 (whole entry, looked up): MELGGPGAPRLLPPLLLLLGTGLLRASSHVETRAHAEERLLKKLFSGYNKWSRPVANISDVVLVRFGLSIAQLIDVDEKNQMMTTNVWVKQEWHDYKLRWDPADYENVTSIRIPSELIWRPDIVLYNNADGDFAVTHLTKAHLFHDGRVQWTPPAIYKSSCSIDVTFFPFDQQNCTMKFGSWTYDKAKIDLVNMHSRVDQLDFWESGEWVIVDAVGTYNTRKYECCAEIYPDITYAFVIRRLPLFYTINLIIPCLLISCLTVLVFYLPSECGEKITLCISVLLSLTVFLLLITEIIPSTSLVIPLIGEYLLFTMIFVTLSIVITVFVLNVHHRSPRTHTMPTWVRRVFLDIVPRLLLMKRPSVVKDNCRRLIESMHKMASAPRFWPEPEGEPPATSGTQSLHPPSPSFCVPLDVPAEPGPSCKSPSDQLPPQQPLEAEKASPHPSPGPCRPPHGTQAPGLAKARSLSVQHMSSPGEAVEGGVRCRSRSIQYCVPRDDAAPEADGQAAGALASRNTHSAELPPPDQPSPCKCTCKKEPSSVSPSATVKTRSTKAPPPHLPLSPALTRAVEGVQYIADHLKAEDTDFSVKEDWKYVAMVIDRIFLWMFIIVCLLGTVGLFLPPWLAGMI
Sequence of UniProt Q9Y2K6 (whole entry, looked up): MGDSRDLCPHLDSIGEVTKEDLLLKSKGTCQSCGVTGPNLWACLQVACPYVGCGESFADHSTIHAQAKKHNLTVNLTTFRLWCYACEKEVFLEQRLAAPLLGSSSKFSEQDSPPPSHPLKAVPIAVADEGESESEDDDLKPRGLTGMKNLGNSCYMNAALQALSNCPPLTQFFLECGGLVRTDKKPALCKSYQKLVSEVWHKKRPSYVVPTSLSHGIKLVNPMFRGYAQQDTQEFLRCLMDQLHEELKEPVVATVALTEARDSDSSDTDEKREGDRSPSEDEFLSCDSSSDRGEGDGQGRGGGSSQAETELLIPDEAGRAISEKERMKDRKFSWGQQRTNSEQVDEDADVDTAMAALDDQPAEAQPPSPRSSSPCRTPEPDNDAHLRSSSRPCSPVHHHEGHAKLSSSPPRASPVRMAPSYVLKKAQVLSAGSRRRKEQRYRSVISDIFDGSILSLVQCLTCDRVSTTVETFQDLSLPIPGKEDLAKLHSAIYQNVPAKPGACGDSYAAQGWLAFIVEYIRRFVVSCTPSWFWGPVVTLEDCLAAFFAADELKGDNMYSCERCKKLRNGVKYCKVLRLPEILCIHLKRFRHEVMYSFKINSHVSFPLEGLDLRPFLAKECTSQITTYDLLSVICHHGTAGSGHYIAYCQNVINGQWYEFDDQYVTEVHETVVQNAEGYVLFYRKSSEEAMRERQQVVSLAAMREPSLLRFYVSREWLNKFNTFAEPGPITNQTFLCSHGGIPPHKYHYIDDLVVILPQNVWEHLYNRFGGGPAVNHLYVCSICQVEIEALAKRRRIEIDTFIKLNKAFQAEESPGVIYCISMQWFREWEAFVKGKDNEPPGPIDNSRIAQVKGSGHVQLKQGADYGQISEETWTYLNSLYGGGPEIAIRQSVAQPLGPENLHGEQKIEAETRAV
Sequence of UniProt P17787 (whole entry, looked up): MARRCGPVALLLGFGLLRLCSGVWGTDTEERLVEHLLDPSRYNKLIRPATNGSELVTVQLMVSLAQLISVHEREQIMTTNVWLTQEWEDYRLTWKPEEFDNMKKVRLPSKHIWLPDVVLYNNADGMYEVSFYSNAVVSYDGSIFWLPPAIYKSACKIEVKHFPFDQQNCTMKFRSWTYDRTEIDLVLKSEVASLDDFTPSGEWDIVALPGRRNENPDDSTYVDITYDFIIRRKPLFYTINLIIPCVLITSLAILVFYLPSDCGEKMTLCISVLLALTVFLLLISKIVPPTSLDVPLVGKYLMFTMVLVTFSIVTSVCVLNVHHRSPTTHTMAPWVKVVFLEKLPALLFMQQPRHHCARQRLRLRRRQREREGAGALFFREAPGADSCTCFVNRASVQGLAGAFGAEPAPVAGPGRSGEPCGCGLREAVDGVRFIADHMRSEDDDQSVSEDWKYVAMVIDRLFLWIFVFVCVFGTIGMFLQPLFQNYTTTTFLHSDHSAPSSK
Sequence of UniProt P14618 (whole entry, looked up): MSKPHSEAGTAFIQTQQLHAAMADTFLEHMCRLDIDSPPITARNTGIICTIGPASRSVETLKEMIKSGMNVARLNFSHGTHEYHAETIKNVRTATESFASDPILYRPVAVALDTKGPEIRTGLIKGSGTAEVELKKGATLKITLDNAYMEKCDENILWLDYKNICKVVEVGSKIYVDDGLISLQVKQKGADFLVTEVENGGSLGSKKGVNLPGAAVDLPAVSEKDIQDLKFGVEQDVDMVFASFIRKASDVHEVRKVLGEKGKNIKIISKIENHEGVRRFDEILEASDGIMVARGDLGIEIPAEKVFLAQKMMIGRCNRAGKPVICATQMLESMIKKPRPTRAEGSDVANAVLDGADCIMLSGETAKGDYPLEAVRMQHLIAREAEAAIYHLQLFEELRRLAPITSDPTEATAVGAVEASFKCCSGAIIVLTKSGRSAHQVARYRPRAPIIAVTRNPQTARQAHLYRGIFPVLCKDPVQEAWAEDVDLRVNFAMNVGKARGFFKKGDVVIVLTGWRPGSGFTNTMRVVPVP
Sequence of UniProt Q9Y210 (whole entry, looked up): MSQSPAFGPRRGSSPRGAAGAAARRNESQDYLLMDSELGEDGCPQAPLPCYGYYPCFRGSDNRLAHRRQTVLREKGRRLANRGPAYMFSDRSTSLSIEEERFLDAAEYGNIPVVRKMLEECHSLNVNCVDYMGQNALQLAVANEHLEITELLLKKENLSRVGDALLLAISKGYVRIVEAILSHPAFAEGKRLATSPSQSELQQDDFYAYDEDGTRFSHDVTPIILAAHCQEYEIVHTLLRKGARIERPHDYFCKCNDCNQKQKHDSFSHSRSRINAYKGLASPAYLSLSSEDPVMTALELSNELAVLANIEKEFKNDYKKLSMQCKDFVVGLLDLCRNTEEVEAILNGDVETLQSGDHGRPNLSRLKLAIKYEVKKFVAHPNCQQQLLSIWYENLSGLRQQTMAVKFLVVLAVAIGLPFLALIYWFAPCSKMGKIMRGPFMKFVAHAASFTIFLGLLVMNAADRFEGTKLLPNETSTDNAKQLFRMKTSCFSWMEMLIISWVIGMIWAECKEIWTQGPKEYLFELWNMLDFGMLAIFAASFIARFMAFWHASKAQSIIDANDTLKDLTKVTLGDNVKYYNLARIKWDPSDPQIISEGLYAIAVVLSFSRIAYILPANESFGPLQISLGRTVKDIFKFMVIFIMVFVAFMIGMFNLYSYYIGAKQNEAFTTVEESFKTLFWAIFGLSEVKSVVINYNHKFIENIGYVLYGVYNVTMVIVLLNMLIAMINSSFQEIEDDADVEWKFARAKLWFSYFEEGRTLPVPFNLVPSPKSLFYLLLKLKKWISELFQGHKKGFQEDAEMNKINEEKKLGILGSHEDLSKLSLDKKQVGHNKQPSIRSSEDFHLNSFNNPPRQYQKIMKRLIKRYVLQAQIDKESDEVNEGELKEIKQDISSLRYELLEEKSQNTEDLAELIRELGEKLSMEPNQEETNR

O=C(Cc1cc(C2CC2)c(-n2cc(CNC(=O)c3ccc(Cl)s3)nn2)c(C2CC2)c1)NC1(C(=O)O)CCCCC1 — EC50 (PYL8; phosphatase activity recovery, antagonist; added: HAB1, ABA 5000 nM): 581 ± 78 nM
O=C(O)CCc1cn2cccnc2n1 — Kd (Ubiquitin carboxyl-terminal hydrolase 49, ZnF-UBD domain (USP49, Homo sapiens, UniProt Q70CQ1)): > 1000 µM
Cc1nn(-c2nc3c(F)cc(F)cc3s2)c(O)c1C(c1ccccc1C(F)(F)F)c1c(C)nn(-c2nc3c(F)cc(F)cc3s2)c1O — EC50 (CGAS catalytic domain; with DNA; cGAS phase separation, inhibitor): 2160 nM and 1620 nM
NS(=O)(=O)c1cccc(Cc2c(-c3ccc(F)c(F)c3)[nH]n(-c3nc(C(=O)O)cs3)c2=O)c1 — EC50 (L-lactate dehydrogenase A chain (LDHA, Homo sapiens, UniProt P00338); CETSA thermal stabilisation; HEK293; 3.5 min, 71 °C): > 50000 nM
CCn1c(-c2nc3cc(C(=O)N4CCC[C@@H](N)C4)cc(OC)c3n2C)cc2cccnc21 — EC50 (Acetylcholine receptor subunit alpha (CHRNA1, Homo sapiens, UniProt P02708); agonist, intracellular Ca2+ fluorescence): > 50100 nM
O=C(Cc1cc(C2CC2)c(-n2cc(CNC(=O)c3cccc(Br)n3)nn2)c(C2CC2)c1)NC1(C(=O)O)CCCCC1 — EC50 (PYL8; phosphatase activity recovery, antagonist; added: HAB1, ABA 5000 nM): 295 ± 49 nM
CC(=O)c1cc([N+](=O)[O-])c(Sc2cccc(Cl)c2Cl)s1 — EC50 (Ubiquitin carboxyl-terminal hydrolase 20 (USP20, Homo sapiens, UniProt Q9Y2K6); enzyme activity, inhibitor): > 50000 nM
CCCCC[C@H](O)/C=C/[C@H]1[C@H](O)CC(=O)[C@@H]1C/C=C\CCCC(=O)O — EC50 (Prostaglandin E2 receptor EP1 subtype (PTGER1, Homo sapiens, UniProt P34995, Y99A); IP1 accumulation, agonist; AD293; EP1 Y99A mutant): 31.6 nM
CC/C(=C(\c1ccccc1)c1ccc(OCCN(C)C)cc1)c1ccccc1 — EC50 (OMA1; luciferase reporter activation, Luke-S1 protease reporter; human cells): 7600 nM
O=C(Nc1ccn(Cc2ccc(O)cc2C(F)(F)F)n1)c1c(F)cccc1F — EC50 (Short transient receptor potential channel 6 (TRPC6, Homo sapiens, UniProt Q9Y210); ion channel activity, agonist; cells overexpressing TRPC6; human receptor): > 10000 nM
O=C(O)c1cccnc1Nc1cccc(C(F)(F)F)c1 — EC50 (BK channel alpha subunit (Cavia porcellus, UniProt A0A286XP95); delayed rectifier K+ current, activator; dispersed vascular smooth muscle cells, guinea pig, AICA arteriole; at +40 mV): 301000 nM
COc1cc(F)c([C@@H]2CNC(=O)[C@H]2NC(=O)Nc2ccccc2)c(F)c1 — EC50 (Formyl peptide receptor 2 (Mus musculus, UniProt O88536); β-arrestin1 recruitment, agonist, BRET; HEK293 expressing mouse FPR2): 133 nM
CNC(=O)c1cc(Oc2ccc(NC(=O)Nc3ccc(Cl)c(C(F)(F)F)c3)cc2)ccn1 — EC50 (OMA1; luciferase reporter activation, Luke-S1 protease reporter; human cells): 4800 nM
O=C(Cc1cc(C2CC2)c(-n2cc(CNC(=O)c3ccc4cccc(F)c4n3)nn2)c(C2CC2)c1)NC1(C(=O)O)CCCCC1 — EC50 (PYL8; phosphatase activity recovery, antagonist; added: HAB1, ABA 5000 nM): 119 ± 21 nM
CCOCc1nc(O)c(-c2nnc(Cc3ccc(Cl)cn3)o2)c(O)c1-c1c(OC)cccc1OC — EC50 (Apelin receptor (Canis lupus familiaris, UniProt A0A8C0JGC4); cAMP inhibition, agonist; HEK293; dog receptor): 0.03 ± 0.01 nM
COc1cc(Nc2ncc3c(n2)-c2ccc(Cl)cc2C(c2c(F)cccc2OC)=NC3)ccc1C(=O)O — EC50 (Interleukin-1 receptor-associated kinase 3 (IRAK3, Homo sapiens, UniProt Q9Y616); binding, kinobead competition; MV4-11 cell lysate): 3490 nM
CCOc1ccc(NC(=O)O[C@@H](Cn2nc(C(C)C)cc2C(C)C)C(C)C)cc1 — EC50 (Neuronal acetylcholine receptor; alpha4/beta2 (Homo sapiens, UniProt P17787+P43681); ACh-evoked current, positive allosteric modulator, two-electrode voltage clamp; low-sensitivity stoichiometry, added: ACh 100 µM): 800 nM and ~800 nM
O=C(Cc1cc(C2CC2)c(-n2cc(CNC(=O)c3cc(Br)co3)nn2)c(C2CC2)c1)NC1(C(=O)O)CCCCC1 — EC50 (PYL8; phosphatase activity recovery, antagonist; added: HAB1, ABA 5000 nM): 293 ± 85 nM
CCCCC[C@H](O)/C=C/[C@H]1C(=O)C[C@H](O)[C@@H]1C/C=C\CCCC(=O)O — EC50 (Prostaglandin D2 receptor 2 (PTGDR2, Homo sapiens, UniProt Q9Y5Y4); agonist, cell-based): 4.9 nM
CCn1c(-c2nc3ccc(C(=O)N4CCCC(N)C4)cc3n2C)cc2ccccc21 (centres unmarked) — EC50 (Cannabinoid receptor 2 (CNR2, Homo sapiens, UniProt P34972); agonist, yeast FDGlu reporter; yeast): > 100000 nM
Cc1cccc(C(=O)NCc2cn(-c3c(C4CC4)cc(CC(=O)NC4(C(=O)O)CCCCC4)cc3C3CC3)nn2)n1 — EC50 (PYL8; phosphatase activity recovery, antagonist; added: HAB1, ABA 5000 nM): 420 ± 118 nM
C[C@H](CCC(C)(C)O)[C@H]1CC[C@H]2[C@@H]3CC=C4C[C@@](C)(O)CC[C@]4(C)[C@H]3CC[C@]12C — EC50 (Glutamate NMDA receptor; GRIN1/GRIN2B (GRIN1/GRIN2B, Homo sapiens, UniProt Q05586+Q13224); ion current, positive modulator, automated patch clamp; HEK293 (stable line); added: glutamate 0.8 µM and glycine): 112 nM
Cc1nn(-c2nc3ccccc3s2)c(O)c1C(c1ccccc1C(=O)O)c1c(C)nn(-c2nc3ccccc3s2)c1O — EC50 (CGAS catalytic domain; with DNA; cGAS-DNA phase separation, inhibitor): 184 nM and 426 nM
O=C(COP(=O)(O)O)[C@@H](O)[C@H](O)[C@H](O)COP(=O)(O)O — EC50 (Pyruvate kinase PKM (PKM, Homo sapiens, UniProt P14618); pyruvate kinase activity, activator; MGC-803 cell lysate; without AIM): 43.9 ± 18.4 nM
O=C(Cc1cc(C2CC2)c(-n2cc(CNC(=O)c3ccc4ccccc4c3)nn2)c(C2CC2)c1)NC1(C(=O)O)CCCCC1 — EC50 (PYL8; phosphatase activity recovery, antagonist; added: HAB1, ABA 5000 nM): 1010 ± 302 nM
O=C(O)CNc1ncnc2ccccc12 — Kd (Ubiquitin carboxyl-terminal hydrolase 20, ZnF-UBD domain (USP20, Homo sapiens, UniProt Q9Y2K6)): > 1000 µM

For quick reference, copied from above:
O=C(O)c1cccnc1Nc1cccc(C(F)(F)F)c1 — EC50 (BK channel alpha subunit (Cavia porcellus, UniProt A0A286XP95); delayed rectifier K+ current, activator; dispersed vascular smooth muscle cells, guinea pig, AICA arteriole; at +40 mV): 301000 nM
COc1cc(F)c([C@@H]2CNC(=O)[C@H]2NC(=O)Nc2ccccc2)c(F)c1 — EC50 (Formyl peptide receptor 2 (Mus musculus, UniProt O88536); β-arrestin1 recruitment, agonist, BRET; HEK293 expressing mouse FPR2): 133 nM
CNC(=O)c1cc(Oc2ccc(NC(=O)Nc3ccc(Cl)c(C(F)(F)F)c3)cc2)ccn1 — EC50 (OMA1; luciferase reporter activation, Luke-S1 protease reporter; human cells): 4800 nM
O=C(Cc1cc(C2CC2)c(-n2cc(CNC(=O)c3ccc4cccc(F)c4n3)nn2)c(C2CC2)c1)NC1(C(=O)O)CCCCC1 — EC50 (PYL8; phosphatase activity recovery, antagonist; added: HAB1, ABA 5000 nM): 119 ± 21 nM
